Results of several laboratories.
A part holds a random share of what one study measured. Positions count from the first letter of the parent shown.

Series 1 — target: CCND3, cyclin fold, Cln2 fusion (human); technique: yeast growth competition, sequencing; matrix: yeast; setting: weak parent motif; reference: not given; reading: higher = stronger binding; starting sequence: viral docking peptide; YKVKRRLVFGADD
Variant	normalised enrichment score
K4Q	0.452
V3D	0.271
A11W	0.437
R5E	0.25
R6T	-0.11
K4D	0.025
R6Q	0.0208
G10W	0.233
A11P	0.306
K2Y	0.0845
V8N	-0.104
D12V	0.646
R5T	-0.0304
F9R	0.0733

Series 2 — technique: RNA Bind-n-Seq; molecule type: RNA; matrix: in vitro; concentration: 365 nM; reference: no-protein control; reading: higher = stronger binding
Target: RNA binding protein fox-1 homolog 2, RRM domain, GST-SBP tag (RBFOX2, Homo sapiens, UniProt O43251-10, residues 100-194)
Setting: natural RNA segment, single round, ends assumed
Shared flanks, not repeated: GGGAGUUCUACAGUCCGACGAUC … UGGAAUUCUCGGGUGCCAA
Target sequence (chain): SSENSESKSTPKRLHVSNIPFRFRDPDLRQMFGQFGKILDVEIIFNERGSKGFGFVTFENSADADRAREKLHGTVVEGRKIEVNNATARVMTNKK
Sequence	RBNS enrichment (R)
UAGUAUAUAUAUCAUUUUCUGGCCUUUUAAAAUUUAUUUGAGACCUCUUGAUGAAAUGGACAUAUUAUAUAUUUCUGCCACCUGGAUUUUCCUGGAUAAUUUGAUGGAAU	0.602
UUUUUAUAAGGAAAUGUUGGAGAGUUACAUCAUUGCUAAUGUAGAAAUGUUAAGUGGAAAAAUAUACAGUUUGGUAAAAUAAACUAGAUUCUACAUUUAUUUGUGGGUUU	0.601
GGUUAGCCACCUGGUGAUUUUGUCUCUAGUGAAACUGUGUUUGCCGAUAAUCAUCCACAUAGCCACCUCUGUCCUCGCAGUUUGGAUGCCUUUUUUUGACACCUGCGCUA	0.371
UUGUGGGUGACCACUCCAGACCCUCCUGCCAAGGAGAGCAUGGGAGAGGGCAGAGUACAAUGGGGUGAGGUCCCAGGCGCAUGGAGCAAGGCUCCCUUUCUGGGGAAGCC	4.45
GGGCAUACCACAUAACUAGAUGCAAGAACCUUGGGGUAGCAUUCUGUAUUUUUAAAUAUGUUUUAAAAGAACUCAGGAACAAUUUACGUCUCUGUAUCUUUUUUUUACUA	0.535
CUUUACCACCUGAGGCCUCCUUAUAUCUCUUCCCAGAGUAAGCUUUGGGAUUGUAGACAUGUGGGAGCUAUGACAGACGUGGCCUGGGGUAGAAAGAUCUCAGGAAAGCA	0.785
AGUAUGACGAUGAGCGGACCUUCUUCUGAAGUCCAAAAGGGGAAACCAAAUUCACCGUUAGGAAACAGUGAGCUCCGGCCCCACCUCGUGAACACAAAGCCUCGGAUCAG	0.206
CUCAUAUGUGGGGUGUAGUCACGUCAGUGACUUCCUGGGAAUUGCUUGUUUCAGAUCAUAUUGAUCUCUUUCCUUUUGUCUCUCACCGUAUGGUAUGACUUGAAUCAGUU	1.87

Series 3 — target: UBE2W UBC core domain (UniProt Q96B02); technique: yeast two-hybrid; matrix: yeast; setting: mostly zero background; reference: not given; reading: higher = stronger interaction
B1: RING1 RING domain (UniProt Q06587); chain SPRSLHSELMCPICLDMLKNTMTTKECLHRFCSDCIVTALRSGNKECPTCRKKLVSKRSLR
B2: ZMYND11 RING domain (UniProt Q15326); chain DEIDWETENHDWYCFECHLPGEVLICDLCFRVYHSKCLSDEFRLRDSSSPWQCPVCRSIKKKNTNKQEM
B3: RNF186 RING domain (UniProt Q9NXI6); chain HSGSTECDLECLVCREPYSCPRLPKLLACQHAFCAICLKLLLCVQDNTWSITCPLCRKVTAVPGGLI
B4: MID2 RING domain (UniProt Q9UJV3); chain KMETLESELTCPICLELFEDPLLLPCAHSLCFSCAHRILVSSCSSGESIEPITAFQCPTCRYVISLNHRGL
Residues (chain): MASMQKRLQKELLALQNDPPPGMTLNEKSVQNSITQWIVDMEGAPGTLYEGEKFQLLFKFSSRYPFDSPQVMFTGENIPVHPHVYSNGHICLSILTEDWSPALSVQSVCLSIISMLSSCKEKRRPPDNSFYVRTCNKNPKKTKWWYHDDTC
Sequence	lacZ reporter activity
B1 (RING1 RING domain)	0
B2 (ZMYND11 RING domain)	0
B3 (RNF186 RING domain)	2520
B4 (MID2 RING domain)	0
LEALSSDFLACKICLEQLRAPKTLPCLHTYCQDCLAQLADGGRVRCPECRETVPVPPEGV (TRIM56 RING domain (UniProt Q9BRZ2))	0

Series 4 — effect on: peptide-MHC binding; molecule type: peptide; concentration: concentration not given
Target: HLA class I histocompatibility antigen, A alpha chain, allele A*25:01 (Homo sapiens, UniProt P04439)
Sequence	binding
LEGLADAIW	inactive
TLKPGTMSV	inactive
DLAQDPMLI	inactive
VHYGQGWLY	inactive

Excerpt of the above (series 2):
Sequence	RBNS enrichment (R)
CUUUACCACCUGAGGCCUCCUUAUAUCUCUUCCCAGAGUAAGCUUUGGGAUUGUAGACAUGUGGGAGCUAUGACAGACGUGGCCUGGGGUAGAAAGAUCUCAGGAAAGCA	0.785
CUCAUAUGUGGGGUGUAGUCACGUCAGUGACUUCCUGGGAAUUGCUUGUUUCAGAUCAUAUUGAUCUCUUUCCUUUUGUCUCUCACCGUAUGGUAUGACUUGAAUCAGUU	1.87
